Results collected from several papers.
Each line is one published result; not all experiments were run side by side. “And” joins repeats or separate records; there may be more than shown. Numbers after ± are the reported error.

Compound = COc1ccccc1-c1ccncc1C(=O)Nc1nnc(OCc2ccc(Cl)cc2)s1; cell line = PEO1 BRCA2-mutant ovarian cancer; setting = 0.5 µM, with: olaparib 0.5 µM; measurement = colony survival; value = 0% and 6.45%
Compound = CN(C)c1ccc(-n2cc(COC(=O)[C@]3(C)C=C(C(=O)OC(C)(C)C)C(=O)CC3)nn2)cc1; cell line = HeLa; assay = quantitative western blot; setting = concentration not given, 20 (unit not given), with: EGF; measurement = pRSK/tubulin ratio; value = 0.188
Compound = COc1cc(N2CCN(C(=O)C3CCCN3)CC2)ccc1Nc1ncc(Cl)c(Nc2ccccc2P(C)(C)=O)n1 (stereo not drawn); cell line = NCI-H3122; assay = annexin V/PI flow cytometry; setting = 500 nM, 24 h, mean of replicates; measurement = late apoptotic cells; value = 3.4%
Compound = CCCCCCCCCCCC(=O)N[C@@H](CO)C[C@@H](O)c1cccc(CCCCCC)c1; cell line = HeLa; assay = CERT activity, HPLC-MS/MS lipidomics, item: lactosylceramide 16; setting = 1 µM, 24 h, not cell-number normalised; measurement = lactosylceramide level; value = 21400 pmol/sample and 25800 pmol/sample and 29300 pmol/sample
Compound = CCCCCCCCN(CCC(=O)Nc1ccccc1)C(=O)c1ccoc1; cell line = progeroid mouse fibroblasts, Lmna G609G/G609G; assay = MTT; setting = 2 µM, 72 h; how to read = baseline: vehicle-treated wild type; measurement = viability; value = 77 ± 5%
Compound = CN1CCN(Cc2ccc(C(=O)Nc3ccc4c(/C=C/c5ccccn5)n[nH]c4c3)cc2)CC1; cell line = Ba/F3 TEL-VEGFR2; assay = cell growth, CCK-8; measurement = GI50; value = 190 nM
Compound = Cc1ncsc1-c1ccc(C(C)NC(=O)C2CC(O)CN2C(=O)C(NC(=O)CCCCCCCCCCN2CCCC(Nc3ncc(Cl)c(Nc4ccccc4S(=O)(=O)C(C)C)n3)C2)C(C)(C)C)cc1 (stereo not drawn); cell line = 22Rv1; assay = RNA-seq, item: ZEB1 mRNA; setting = concentration not given; how to read = baseline: DMSO; measurement = log2 fold change; value = -1.98
Compound = COc1cccc(C(=O)Nc2ccc(Sc3ccc4c(/C=C/c5ccccn5)n[nH]c4c3)cc2)c1; cell line = Ba/F3 TEL-VEGFR2; assay = cell growth, CCK-8; measurement = GI50; value = 200 nM
Compound = O=C(CCCCCOc1ccc2ccccc2c1)N[C@@H](CO)C[C@@H](O)c1ccc(-c2ccccc2)cc1; cell line = HeLa; assay = CERT activity, HPLC-MS/MS lipidomics, item: sphingomyelin 22; setting = 1 µM, 24 h, not cell-number normalised; measurement = sphingomyelin level; value = 45700 pmol/sample and 44500 pmol/sample and 40300 pmol/sample
Compound = CNC(NN=Cc1ccc([N+](=O)[O-])o1)=[S+][Au-][Cl]; cell line = CAKI-1; assay = annexin V/PI flow cytometry; setting = 5 µM, 72 h; measurement = cell fraction ANV−/PI+; value = 2.2 ± 0.9%
Compound = Cn1ncc2cc(-c3cncc(Cl)c3N3CCC4(CCNC4=O)CC3)ccc21; cell line = LS174T; assay = gene expression, microarray, item: PPP1R3C mRNA; setting = concentration not given, 4 h; how to read = baseline: untreated cells; measurement = log2 fold change; value = 1.15
Compound = CSC(=S)N/N=C(\C)c1ccc(Nc2nnc(-c3ccc(Cl)cc3)c3ccccc23)cc1; cell line = HepG2; assay = cell growth or viability, MTT; setting = 1.25 µM, 24 h; measurement = viability; value = 3.59%
Compound = CCOc1cncc(-c2ccc(NC(=O)C3(c4ccnc(NS(=O)(=O)C5CC5)n4)CCOCC3)nc2)n1; cell line = NCI-H929; assay = cell growth or viability, ATP luminescence; setting = 72 h; measurement = IC50; value = 197 nM
Compound = Cc1nc2c(F)cc(-c3nc(Nc4ccc(CNC(=O)CCCCCC(=O)NO)cc4)ncc3F)cc2n1C(C)C; cell line = OVCAR-5; assay = cell growth or viability, CCK-8; setting = 0.3 µM, 48 h; measurement = inhibition; value = 93.2%
Compound = COC(=O)c1cc(NC2=NC(=O)C(=Cc3ccc(N(C)C)cc3)S2)ccc1OC(C)=O; cell line = MCF7; assay = GC-MS, item: Oleic acid; setting = 1 µM; how to read = baseline: DMSO; measurement = metabolite level; value = 0.25 fold change
Compound = Fc1ccc(Nc2nc(NC3CCCCC3)c3cc(Br)ccc3n2)cc1F; cell line = transfected HEK293 cells; assay = β-arrestin2 recruitment, negative allosteric modulator, BRET; setting = 30 min pre-incubation, β1AR ECL1 chimera, with: isoproterenol 1 µM; measurement = pIC50; value = 6.5
Compound = C=Cc1c(C)c2cc3nc(c(CC(=O)OCCOCCOCCOC)c4[nH]c(cc5nc(cc1[nH]2)C(C)=C5CC)c(C)c4C(=O)O)[C@@H](CCC(=O)OCCOCCOCCOC)[C@@H]3C; cell line = OVCAR-5; assay = MTT; setting = 0.1 µM, with: sodium azide 2 mM; how to read = baseline: compound alone; measurement = reduction of phototoxicity; value = ~25%
Compound = O=C(NCc1cc(F)cc(F)c1)[C@@]1(O)CCN(c2ccc3[nH]ccc3c2)C1=O; cell line = PDX-derived liver tumour cells; assay = colony formation, inhibitor, soft agar clonogenic; setting = 8-13 days; measurement = maximal inhibition; value = 49%
Compound = CNS(=O)(=O)Nc1nccc(Cc2c(C)c3ccc(Oc4ncccc4F)cc3oc2=O)c1F; cell line = NCI-H2172; assay = cell viability; setting = 7 days; measurement = IC50; value = > 1000 nM
Compound = CN1CCCNC(=O)c2cccc(c2)C(=O)NCCCN(C)CCCNc2cccc3c2C(=O)c2cccc(c2C3=O)NCCC1; cell line = SAS; assay = RNA-Seq, item: ANKRD52 mRNA; setting = 1 µM, 6 h; how to read = baseline: untreated cells; measurement = log2 fold change; value = -0.677
Compound = CCCCCCCCCCCCCCCC(=O)OCC(CSC[C@H](N)C(=O)N[C@@H](CO)C(=O)N[C@@H](CCCCN)C(=O)N[C@@H](CCCCN)C(=O)N[C@@H](CCCCN)C(=O)N[C@@H](CCCCN)C(=O)NCCCCCC(=O)N[C@@H](CCCCN)C(=O)N[C@@H](CC(C)C)C(=O)N[C@H](C(=O)N[C@@H](Cc1ccccc1)C(=O)N[C@@H](Cc1ccccc1)C(=O)N[C@@H](Cc1ccc2ccccc2c1)C(=O)O)C(C)C)OC(=O)CCCCCCCCCCCCCCC (stereo partly drawn); cell line = BV-2; assay = Western blot, item: MARCO; setting = concentration not given; how to read = baseline: control; measurement = relative protein level; value = 3.11
Compound = CO[C@@H]1[C@@H](OC(N)=O)[C@@H](O)[C@H](Oc2ccc3c(O)c(NC(=O)c4ccc(O)c(CC=C(C)C)c4)c(=O)oc3c2C)OC1(C)C; cell line = DLD-1 parental; setting = 200 µM; how to read = baseline: untreated; measurement = colony survival; value = 0.12%
Compound = O=C(Nc1ccc(Sc2ccc3c(/C=C/c4ccccn4)n[nH]c3c2)cc1)Nc1ccc(F)c(F)c1; cell line = Ba/F3 TEL-VEGFR3; assay = cell growth, CCK-8; measurement = GI50; value = 3190 nM
Compound = CCN(CC)CC(=O)Nc1cccc(-n2cc(-c3ccc4ccc(-c5cn(-c6cccc(NC(=O)CN(CC)CC)c6)nn5)cc4c3)nn2)c1; cell line = RCC4; assay = PCR angiogenesis array, item: COL18A1; setting = 5 x IC50, 2 h, normoxia; how to read = baseline: untreated; measurement = fold regulation; value = 1
Compound = CC(C)c1ccc(N(C)c2ccc3c(c2)OCC[C@H]3CNc2cnccc2C(=O)O)cc1; cell line = KYSE-150; assay = cell growth or viability, MTS; setting = 7 days; measurement = IC50; value = 5.3 nM
Compound = Fc1ccc(Nc2nc(NC3CCCCC3)c3cc(C(F)(F)F)ccc3n2)cc1F; cell line = transfected HEK293 cells; assay = β-arrestin2 recruitment, negative allosteric modulator, BRET; setting = 30 min pre-incubation, β1AR ECL1 chimera, with: isoproterenol 1 µM; how to read = baseline: isoproterenol alone; measurement = Imax; value = 0.9%
Compound = Cc1cc(C)nc(NC(=S)N2CCN(c3ccncc3)CC2)c1; cell line = MT-3 (high PHGDH); assay = cell viability, CellTiter-Glo; setting = 4 days; measurement = EC50; value = > 100000 nM
Compound = CCNc1cc2c(cc1C)C1(c3cc(C)c(NCC)cc3O2)c2ccccc2C(=O)N1N=Cc1c[c-]c(-c2ccccn2)cc1.Cc1c(C)c(-c2ccc(-c3ccccc3)cc2)[c-](C)c1C.[Cl-].[Ir+3]; cell line = A549; assay = annexin V/PI flow cytometry; setting = 1.0×IC50, 24 h; measurement = late apoptotic cells; value = 27.58 ± 0.21%
Compound = Cc1cnc(NC(=O)c2cccc([C@@H]3C[C@H]3NC3CCC3)c2)s1; cell line = SET-2; assay = cell growth, CellTiter-Glo; setting = 1 µM, 7 d; how to read = baseline: vehicle; measurement = relative growth; value = 101% and 109% and 94.6%
Compound = C=CC(=O)N1[C@@H](c2ccc3c(c2)OCO3)c2[nH]c3ccccc3c2C[C@H]1C(=O)NC1CC1; cell line = rat DRG neurons; setting = 0.3704 µM, 48 h, with: vincristine 40 nM; measurement = mean neuron degeneration; value = 78.4%
Compound = O=C(N1CCCC1)n1cc(-c2ccc(-c3ccccc3)cc2)nn1; cell line = mouse T-cells; assay = N-terminal labelling enrichment, item: TFG N-terminal peptides; setting = 1 nM, 6 h, protein median; how to read = baseline: DMSO; measurement = SILAC ratio; value = 1.13
Compound = CC1(C)C[C@@H](Nc2cccc(-c3sc(C(=O)O)c(OCC(=O)O)c3Cl)c2)CCN1S(=O)(=O)Cc1cccc(NC(=O)CN2CCC(c3ccc4c(c3)oc(=O)n4C3CCC(=O)NC3=O)CC2)c1 (stereo partly drawn); cell line = B16-F10; assay = HTRF, item: phospho-STAT1 Tyr701; setting = 3.3 µM, with: IFN-γ; how to read = baseline: min-max normalised; measurement = pSTAT1 level; value = 78.9% and 87.1% and 82% and 87.5% and 84.2% and 85.4%
Compound = COC(=O)c1cc(NC2=NC(=O)C(=Cc3ccc(C)cc3)S2)ccc1OC(C)=O; cell line = MCF7; assay = GC-MS, item: L-Cysteine; setting = 1 µM; how to read = baseline: DMSO; measurement = metabolite level; value = -0.46 fold change

Repeated from above:
Compound = CCCCCCCCCCCCCCCC(=O)OCC(CSC[C@H](N)C(=O)N[C@@H](CO)C(=O)N[C@@H](CCCCN)C(=O)N[C@@H](CCCCN)C(=O)N[C@@H](CCCCN)C(=O)N[C@@H](CCCCN)C(=O)NCCCCCC(=O)N[C@@H](CCCCN)C(=O)N[C@@H](CC(C)C)C(=O)N[C@H](C(=O)N[C@@H](Cc1ccccc1)C(=O)N[C@@H](Cc1ccccc1)C(=O)N[C@@H](Cc1ccc2ccccc2c1)C(=O)O)C(C)C)OC(=O)CCCCCCCCCCCCCCC (stereo partly drawn); cell line = BV-2; assay = Western blot, item: MARCO; setting = concentration not given; how to read = baseline: control; measurement = relative protein level; value = 3.11
Compound = CC1(C)C[C@@H](Nc2cccc(-c3sc(C(=O)O)c(OCC(=O)O)c3Cl)c2)CCN1S(=O)(=O)Cc1cccc(NC(=O)CN2CCC(c3ccc4c(c3)oc(=O)n4C3CCC(=O)NC3=O)CC2)c1 (stereo partly drawn); cell line = B16-F10; assay = HTRF, item: phospho-STAT1 Tyr701; setting = 3.3 µM, with: IFN-γ; how to read = baseline: min-max normalised; measurement = pSTAT1 level; value = 78.9% and 87.1% and 82% and 87.5% and 84.2% and 85.4%
Compound = CN1CCCNC(=O)c2cccc(c2)C(=O)NCCCN(C)CCCNc2cccc3c2C(=O)c2cccc(c2C3=O)NCCC1; cell line = SAS; assay = RNA-Seq, item: ANKRD52 mRNA; setting = 1 µM, 6 h; how to read = baseline: untreated cells; measurement = log2 fold change; value = -0.677
Compound = O=C(Nc1ccc(Sc2ccc3c(/C=C/c4ccccn4)n[nH]c3c2)cc1)Nc1ccc(F)c(F)c1; cell line = Ba/F3 TEL-VEGFR3; assay = cell growth, CCK-8; measurement = GI50; value = 3190 nM
Compound = CCCCCCCCCCCC(=O)N[C@@H](CO)C[C@@H](O)c1cccc(CCCCCC)c1; cell line = HeLa; assay = CERT activity, HPLC-MS/MS lipidomics, item: lactosylceramide 16; setting = 1 µM, 24 h, not cell-number normalised; measurement = lactosylceramide level; value = 21400 pmol/sample and 25800 pmol/sample and 29300 pmol/sample
